Measurements collected from several papers.
Several values in a cell are separate wells, animals, samples, runs or records.

Structure (SMILES) | target or system | assay | test system | setting | scale | measurement | value
CNS(=O)(=O)Nc1nccc(Cc2c(C)c3ccc(Oc4ncccc4F)cc3oc2=O)c1F | CAL-12T | cell viability | – | 7 days | – | IC50 | > 1 µM
CO[C@@H]1[C@@H](OC(N)=O)[C@@H](O)[C@H](Oc2ccc3c(O)c(NC(=O)c4ccc(O)c(CC=C(C)C)c4)c(=O)oc3c2C)OC1(C)C | DLD-1 BRCA2-/- | – | – | 200 µM, mean of replicates A, B | relative to: untreated | colony survival | 0.326%
Cn1ncc2cc(-c3cncc(Cl)c3N3CCC4(CCNC4=O)CC3)ccc21 | LS174T | gene expression, microarray, item: KLF6 mRNA | – | concentration not given, 24 h | relative to: untreated cells | log2 fold change | 1.61
COc1ccccc1-c1ccncc1C(=O)Nc1nnc(OCc2ccc(Cl)cc2)s1 | MDA-MB-436 BRCA1-mutant | – | – | 3 µM, single replicate | relative to: untreated | colony survival | 40.5% and 55.3% and 50%
CN1CCCNC(=O)c2cccc(c2)C(=O)NCCCN(C)CCCNc2cccc3c2C(=O)c2cccc(c2C3=O)NCCC1 | SAS | RNA-seq, item: RRH mRNA | – | 1 µM, 6 h | relative to: untreated cells | log2 fold change | 6.59
Cc1ncsc1-c1ccc(C(C)NC(=O)C2CC(O)CN2C(=O)C(NC(=O)CCCCCCCCCCN2CCCC(Nc3ncc(Cl)c(Nc4ccccc4S(=O)(=O)C(C)C)n3)C2)C(C)(C)C)cc1 (stereo not drawn) | 22Rv1 | RNA-seq, item: SLC16A13 mRNA | – | concentration not given | relative to: DMSO | log2 fold change | -3.25
COC1CN([C@H]2CC[C@H]([C@@]3(C)Oc4c(Cl)cc(C(=O)NCc5c(SC)cc(C)[nH]c5=O)c(C)c4O3)CC2)C1 | – | RNA-seq, item: C17orf99 | human, whole blood | dose not given, 24 h | relative to: pretreatment baseline | log2 fold change | 2.08
CC(C)c1ccc(N(C)c2ccc3c(c2)OCC[C@H]3CNc2cnccc2C(=O)O)cc1 | NCI-H1755 | cell growth or viability, ATP luminescence | – | 7 days | – | IC50 | ≥ 10 µM
CCN(CC)CC(=O)Nc1cccc(-n2cc(-c3ccc4ccc(-c5cn(-c6cccc(NC(=O)CN(CC)CC)c6)nn5)cc4c3)nn2)c1 | RCC4 | PCR angiogenesis array, item: THBS1 | – | 5 x IC50, 6 h, normoxia | relative to: untreated | fold regulation | -1.36 fold

Excerpt of the above:
Structure (SMILES) | target or system | assay | test system | setting | scale | measurement | value
CC(C)c1ccc(N(C)c2ccc3c(c2)OCC[C@H]3CNc2cnccc2C(=O)O)cc1 | NCI-H1755 | cell growth or viability, ATP luminescence | – | 7 days | – | IC50 | ≥ 10 µM
